{"data": "Experimental data gathered from unrelated publications", "target": "Broad substrate specificity ATP-binding cassette transporter ABCG2 (ABCG2, Homo sapiens, UniProt Q9UNQ0)", "One construct used (Q9UNQ0 1-655)": "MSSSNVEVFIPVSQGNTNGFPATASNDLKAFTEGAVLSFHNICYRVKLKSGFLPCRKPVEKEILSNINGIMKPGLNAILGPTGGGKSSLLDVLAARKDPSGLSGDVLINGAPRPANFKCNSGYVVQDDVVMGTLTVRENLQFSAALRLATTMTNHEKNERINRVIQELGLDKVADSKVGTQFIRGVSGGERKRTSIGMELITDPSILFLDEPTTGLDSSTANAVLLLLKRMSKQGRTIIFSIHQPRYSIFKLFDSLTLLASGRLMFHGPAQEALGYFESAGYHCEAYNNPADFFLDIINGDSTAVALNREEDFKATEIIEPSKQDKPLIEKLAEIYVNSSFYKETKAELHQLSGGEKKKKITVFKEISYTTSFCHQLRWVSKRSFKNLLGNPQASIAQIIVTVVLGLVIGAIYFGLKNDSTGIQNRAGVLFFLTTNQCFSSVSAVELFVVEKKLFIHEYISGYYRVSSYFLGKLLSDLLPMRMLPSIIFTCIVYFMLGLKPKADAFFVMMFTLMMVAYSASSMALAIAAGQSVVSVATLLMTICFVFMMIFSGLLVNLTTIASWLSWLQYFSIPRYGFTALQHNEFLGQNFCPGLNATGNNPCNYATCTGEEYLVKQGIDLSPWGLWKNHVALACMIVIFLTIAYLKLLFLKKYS", "note": "Lines come from different studies, so protocols differ. Numbers after ± are the reported error."}
{"SMILES": "O=C(O)C1OC(Oc2ccc3c(=O)cc(-c4ccccc4)oc3c2)C(O)C(O)C1O (stereo not drawn)", "test": "glucuronide efflux, substrate", "system": "HeLa-UGT1A9", "endpoint": "intrinsic clearance", "value": "33.6 µL/min/mg protein"}
{"SMILES": "O=C(/C=C/c1ccc(Cl)c(Cl)c1)c1ccc2ccccc2c1", "test": "mitoxantrone efflux, flow cytometry", "system": "HEK293 transfected with ABCG2", "conditions": "5 µM, 30 min, added: mitoxantrone", "how to read": "baseline: 5 µM GF120918 as 100%", "endpoint": "inhibition", "value": "2 ± 1.4%"}
{"SMILES": "CC(=O)Nc1ccc(C)c(Nc2nccc(-c3cccnc3)n2)c1", "system": "MCF7-FLV1000, overexpressing", "conditions": "added: mitoxantrone 5 µM", "endpoint": "IC20", "value": "8.34 µM"}
{"SMILES": "COc1cc(OC)c(OC)cc1/C=C/C(=O)c1ccc2ccccc2c1", "test": "mitoxantrone efflux, flow cytometry", "system": "HEK293 transfected with ABCG2", "conditions": "5 µM, 30 min, added: mitoxantrone", "how to read": "baseline: 5 µM GF120918 as 100%", "endpoint": "inhibition", "value": "96.9 ± 7.4%"}
{"SMILES": "O=C(O)C1OC(Oc2cccc(-c3cc(=O)c4ccccc4o3)c2)C(O)C(O)C1O (stereo not drawn)", "test": "efflux of glucuronide, substrate", "system": "HeLa-UGT1A9", "endpoint": "Km", "value": "5.6 µM"}
{"SMILES": "Cc1cc(NC(=O)c2ccc(C)c(Nc3nccc(-c4cccnc4)n3)c2)cc(-n2cnc(C)c2)c1", "system": "MCF7-FLV1000, overexpressing", "conditions": "added: mitoxantrone 5 µM", "endpoint": "IC20", "value": "0.42 µM"}
{"SMILES": "O=C(/C=C/c1ccc(Br)cc1)c1ccc2c(c1)OCO2", "test": "mitoxantrone efflux, flow cytometry", "system": "HEK293 transfected with ABCG2", "conditions": "5 µM, 30 min, added: mitoxantrone", "how to read": "baseline: 5 µM GF120918 as 100%", "endpoint": "inhibition", "value": "13.7 ± 7.5%"}
{"SMILES": "COc1cc(CCOC(C)=O)cc(-c2cc(CCOC(C)=O)cc(O)c2O)c1O", "test": "mitoxantrone transport, inhibitor", "conditions": "10 µM, 30 min, added: mitoxantrone 5 µM", "how to read": "baseline: Ko143 0.5 µM", "endpoint": "inhibition", "value": "21.8 ± 12%"}
{"SMILES": "Cc1ccc(C(=O)Nc2cccc(C(F)(F)F)c2)cc1N", "system": "MCF7-FLV1000, overexpressing", "conditions": "added: mitoxantrone 5 µM", "endpoint": "IC20", "value": "5.15 µM"}
